Results from different studies.
Each line is one published result; not all experiments were run side by side. Values joined by “and” are separate records of one study, mostly repeats; a detail may differ. Numbers after ± are the reported error.

CN(O)C(=O)CCC(=O)NCCCN(CCCCN(CCCNC(=O)CCC(=O)N(C)O)C(=O)CCC(=O)N(C)O)C(=O)CCC(=O)N(C)O.[89Zr]  intact complex (radio-TLC; aqueous buffer; 3 d, pH 7.2, 37 °C, 89Zr-labelled complex, added: CuCl2 10-fold excess): 99.5 ± 0.9%
C=CC(=O)N1CCCC(n2c(=O)c3ncccc3n(Cc3ccc(Oc4ccccc4)cc3)c2=O)C1 (centres unmarked)  plasma concentration (male BALB/c mice, plasma; oral, 200 mg/kg, 4 h): 3940 ng/mL and 7610 ng/mL
CC[C@H](C)[C@@H]1NC(=O)[C@H](Cc2ccc(O)cc2)NC(=O)CCCSC[C@@H](C(=O)N(CC(=O)N[C@@H](CC(C)C)C(=O)NCC(N)=O)Cc2ccc(F)cc2)NC(=O)[C@H](CC(N)=O)NC(=O)[C@H](CCC(N)=O)NC1=O  Cmax (healthy human females, plasma; intranasal, 300 µg single dose): 0.153 ng/mL
COCC1CN(C2CCN(c3cc(OC)c(Nc4ncc(Br)c(Nc5ccc6c(c5P(C)(C)=O)OCCO6)n4)cc3C)CC2)C1  Tmax at steady state (EGFR-mutant NSCLC patients, plasma; oral, 10 mg multiple doses, median): 2.03 h
CCC(C(=O)Nc1ccc(C(N)=O)c(F)c1)n1cc(OC)c(-c2cc(Cl)ccc2-n2cc(C(F)(F)F)nn2)cc1=O (centres unmarked)  mild drug-related adverse events (healthy male humans; 50 mg, maximum intensity): 7.1%
OC1(C(F)(F)F)CCN(c2nc(Nc3ccnc(C(F)(F)F)c3)nc(-c3cccc(C(F)(F)F)n3)n2)C1 (centres unmarked)  AUC(0-inf) (Sprague-Dawley rat, both sexes, plasma; oral gavage, 5 mg/kg): 6710 ± 935 ng·h/mL
C=CC(=O)Nc1cc(Nc2nccc(-c3cn(C)c4ccccc34)n2)c(OC)cc1N(C)CCNC  recovery (storage stability; human plasma; 24 h, on ice, low QC level): 89.9%
CCCCN1C(=O)c2cccc3c(NCCCCCCCCCCN4CCOCC4)ccc(c23)C1=O  molar extinction coefficient (acetonitrile): 13300 M⁻¹ cm⁻¹
CCC(=O)N(C)c1ccc(Cl)c(Cl)c1  plasma concentration (female C57BL/6 mice; oral, 10 mg/kg, 0.5 h): 131 ng/mL
CNC(=O)C[C@H](Cc1ccc(C#N)cc1)NC(=O)c1cc(-c2ccc(CN[C@H](C)c3ccc(C)cc3)o2)ccc1Cl  blood clearance (rat hepatocytes; 1 µM): 61.7 mL/min/kg
O=C(O)CCCOc1ccc([18F])cc1-c1cc(-c2ccccc2C(F)(F)F)n(-c2ccccc2)n1  absorbed dose (OLINDA/EXM from mouse data; human adults, uterus): 11.2 µGy/MBq
CC(C)C[C@H](NC(=O)[C@H](CCCN)NC(=O)CNC(=O)[C@@H](NC(=O)[C@H](C)NC(=O)[C@@H]1CSCSC[C@H](NC(=O)CC[C@H](N)C(=O)O)C(=O)N[C@@H](CC(N)=O)C(=O)N[C@@H]([C@@H](C)O)C(=O)N[C@@H](C)C(=O)N[C@@H]([C@@H](C)O)C(=O)N1)[C@@H](C)O)C(=O)N[C@@H](C)C(=O)N[C@@H](CCC(=O)O)C(=O)N[C@@](C)(Cc1ccccc1)C(=O)N[C@@H](CC(C)C)C(=O)N[C@H](C(=O)N[C@@H](CCCNC(=N)N)C(=O)N[C@@H](CO)C(=O)N[C@@H](CO)C(=O)N[C@@H](CC(N)=O)C(=O)N(C)[C@@H](CC(N)=O)C(=O)N[C@@H](Cc1ccccc1)C(=O)NCC(=O)N1CCC[C@H]1C(=O)N[C@@H](CCCCNC(=O)CC[C@H](NC(=O)CC[C@H](NC(=O)CCCCCCCCCCCCCCCCCCC(=O)O)C(=O)O)C(=O)O)C(=O)N[C@@H](CC(C)C)C(=O)N1CCC[C@H]1C(=O)N1CCC[C@H]1C(=O)N[C@H](C(=O)N[C@@H](CCC(=O)O)C(=O)N[C@H](C(=O)NCC(=O)N[C@@H](CO)C(=O)N[C@@H](CC(N)=O)C(=O)N[C@H](C(=O)N[C@@H](Cc1ccc(O)cc1)C(N)=O)[C@@H](C)O)C(C)C)[C@@H](C)O)C(C)C  AUC(0-tlast) (healthy humans, plasma; subcutaneous, dose not given): 59700 ng·h/mL
CCCCN1C(=O)c2cccc3c(NCCCCCCCCN4CCOCC4)ccc(c23)C1=O  molar extinction coefficient (DMSO): 11600 M⁻¹ cm⁻¹
COc1ccc2c(c1)CCn1c[n+]3c(c1-2)-c1ccc(OC)cc1CC3  haemoglobin (female NSG mice, blood; 6 mg/kg, day 20, 5 days per week): 13.9 ± 0.16 g/dL
C=CC(=O)Nc1cc(Nc2nccc(-c3c[nH]c4ccccc34)n2)c(OC)cc1N(C)CCN(C)C  recovery (storage stability; human plasma; 24 h, -80 °C, low QC level): 93.7%
COc1cccc(OC)c1-c1cc(C(=O)NC2(C(=O)O)C3CC4CC(C3)CC2C4)nn1-c1ccc(C(=O)N(C)CCOCCN(C)C(=O)[C@H](CCCCNC(=O)[C@H](CC(C)C)NC(=O)C2OC2C(=O)O)NC(=O)CN2CCN(CC(=O)[O-])CCN(CC(=O)[O-])CCN(CC(=O)[O-])CC2)cc1C(C)C.[177Lu+3] (mixture of isomers)  tumour-to-brain ratio (mouse, HT-29 xenograft; 24 h post injection, biodistribution; reference: tumour over brain uptake): 18
CCCCN1C(=O)c2cccc3c(NCCCCCCN4CCOCC4)ccc(c23)C1=O  molar extinction coefficient (ethyl acetate): 12300 M⁻¹ cm⁻¹
CC(C)[C@H](NC(=O)[C@H](Cc1c[nH]c2ccccc12)NC(=O)[C@H](CCCNC(=N)N)NC(=O)[C@H](CCCNC(=N)N)NC(=O)[C@@H](NC(=O)[C@@H](NC(=O)[C@H](CCCNC(=N)N)NC(=O)[C@@H](NC(=O)[C@@H](NC(=O)[C@H](CCCNC(=N)N)NC(=O)[C@H](CCCNC(=N)N)NC(=O)[C@@H](NC(=O)[C@H](Cc1c[nH]c2ccccc12)NC(=O)[C@H](CCCNC(=N)N)NC(=O)[C@H](CCCNC(=N)N)NC(=O)[C@@H](NC(=O)[C@H](CCCNC(=N)N)NC(=O)[C@H](CCCNC(=N)N)NC(=O)[C@@H](NC(=O)[C@H](Cc1c[nH]c2ccccc12)NC(=O)[C@H](CCCNC(=N)N)NC(=O)[C@@H](N)CCCNC(=N)N)C(C)C)C(C)C)C(C)C)C(C)C)C(C)C)C(C)C)C(C)C)C(=O)N[C@@H](CCCNC(=N)N)C(=O)N[C@@H](CCCNC(=N)N)C(=O)O  total CO2 (CD1 mouse, plasma; intravenous, 15 mg/kg, 24 h, [14C]-labelled compound): 23.3 mEq/L
CC[C@H](C)[C@H](NC(=O)[C@H](CC(N)=O)NC(=O)[C@@H](N)CCSC)C(=O)N[C@@H](CCSC)C(=O)N[C@@H](CC(=O)O)C(=O)N[C@@H](Cc1ccccc1)C(=O)N[C@@H](CC(N)=O)C(=O)N[C@H](C(=O)N[C@@H](CCCCN)C(=O)N[C@@H](CCCCN)C(=O)N[C@@H](CC(C)C)C(=O)N[C@@H](C)C(=O)N[C@@H](C)C(=O)N[C@@H](CC(=O)O)C(=O)N[C@@H](C)C(=O)NCC(=O)N[C@H](C(=O)N[C@@H](Cc1c[nH]c2ccccc12)C(=O)N[C@@H](CC(C)C)C(=O)N[C@@H](CO)C(=O)N[C@@H](CCCNC(=N)N)C(=O)N[C@@H](C)C(=O)N[C@H](C(=O)N[C@@H](CCC(N)=O)C(=O)N[C@@H](Cc1ccccc1)C(=O)N[C@H](C(=O)N[C@@H](CCC(=O)O)C(=O)N[C@@H](CCC(=O)O)C(=O)N[C@@H](CCCCN)C(=O)N[C@@H](CC(C)C)C(=O)NCC(=O)N[C@@H](CCC(N)=O)C(=O)N[C@@H](C)C(N)=O)[C@@H](C)O)C(C)C)[C@@H](C)O)C(C)C  fractional helicity (circular dichroism; ~60% TFE): 80.9%
CCN(CC)c1ccc2c(c1)O[B-]1(c3ccccc3C#N)OC(=O)C(c3ccccc3)=N[N+]1=C2 (centres unmarked)  molar absorption coefficient (toluene): 54000 M⁻¹ cm⁻¹
C/C(N)=N/C(=N\S(=O)(=O)c1ccc(C(F)(F)F)cc1)N1C[C@H](c2ccccc2)C(c2ccc(Cl)cc2)=N1  half-life (C57BL/6 mouse, brain; intravenous, 10 mg/kg): 6.5 h
C=CC(=O)Nc1cccc(Cn2ncc3cnc(Nc4cnn(CCOC)c4)nc32)c1  remaining compound (dog, Beagle, both sexes, whole blood; 5 µM, 120 min): 45.3%
C(=N\Nc1nnc(N/N=C/c2ccccc2)c2ccccc12)/c1ccccc1  haemolysis (haemolysis; human; 1 mM, 45 min): 7.3%
C=C(NC(=O)c1csc(-c2nc3c(cc2O)-c2nc(cs2)C(=O)NC(C(C)O)C(=O)NC(=C(C)OC)c2nc(cs2)C(=O)NC2c4nc(cs4)C(=O)NC(COC(=O)c4c5c6c(cccc6n4O)COC(=O)C(OC4CC(C)(O)C(N(C)C)C(C)O4)C2OC5)c2nc-3cs2)n1)C(N)=O (centres unmarked)  half-life (Sprague-Dawley rat, both sexes, plasma; intravenous infusion, 6 mg/kg, multiple doses, day 7): 7.16 h
CCCCN1C(=O)c2cccc3c(NCCCCN4CCOCC4)ccc(c23)C1=O  molar extinction coefficient (acetonitrile): 8600 M⁻¹ cm⁻¹
[123I]c1ccc2nc(-c3ccc(-n4ccnn4)nc3)cn2c1  tissue uptake (male Wistar rat, small intestine; intravenous, 4 MBq, 3 h): 1.5 ± 0.424 %ID/g
NC(=O)CN(CCc1ccc(Cl)cc1)C(=O)CN(CCc1ccc(Cl)cc1)C(=O)CN(CCc1ccc(Cl)cc1)C(=O)CN(CCc1ccc(Cl)cc1)C(=O)CN(CCc1ccc(Cl)cc1)C(=O)CN(CCc1ccc(Cl)cc1)C(=O)CN(CCC(=O)O)C(=O)CN(CCC(=O)O)C(=O)CN(CCC(=O)O)C(=O)CN(CCC(=O)O)C(=O)CN(CCC(=O)O)C(=O)CNCCC(=O)O  equilibrium concentration (Ce) (in situ AFM; HCl solution on mica; pH 2.8, room temperature, 2D phase solubility): 0.05 µM
CC1(C)C(/C=C/C2=C(Cl)C(=C/C=C3/N(CCCCCC(=O)O)c4ccccc4C3(C)C)/C[N+](C)(C)C2)=[N+](CCCCCC(=O)O)c2ccccc21  molar absorption coefficient (water): 152000 M⁻¹ cm⁻¹
O=C(Nc1cnccc1-c1ccc([18F])cc1)c1ccnc(NC(=O)C2CC2)c1  SUV (FVB/NJ mice (both sexes), thalamus; intravenous, dose not given, 120 min): 0.05
CN1CCC[C@]1(C)/C=C/S(=O)(=O)NC(=O)Nc1c2c(cc3c1CCC3)CCC2  subjects with adverse event (refers to: alanine aminotransferase increased, probably related; human; oral, 12.5 mg twice daily, 14 days, multiple ascending dose): 0%
CN([O-])C(=O)CN1CCNCCN(CC(=O)N(C)[O-])CC1.[89Zr+4]  tracer uptake (mouse, liver; intravenous, 24 h): 0.18 %ID/g
CCCC[C@H](OC(C)=O)c1ccccc1C(=O)O  clearance (beagle dogs, both sexes, whole blood; intravenous, 5 mg/kg single dose): 16.8 ± 1.77 mL/min/kg
O=C1CCC(N2Cc3cc(C(=O)O)c(F)cc3C2=O)C(=O)N1 (centres unmarked)  plasma concentration (cynomolgus monkey, male; oral, 0.3 mg/kg parent drug, 8 h): 0.63 ± 0.45 ng/mL
CCCCN1C(=O)c2cccc3c(NCCCCCN4CCOCC4)ccc(c23)C1=O  molar extinction coefficient (acetonitrile): 5820 M⁻¹ cm⁻¹
O=C(NS(=O)(=O)c1cccs1)c1cc2ccccc2n1Cc1ccc(Br)c2ccccc12  MRT(0-inf) (Sprague-Dawley rat, male, plasma; intravenous, 2 mg/kg): 0.518 h
O=C(Nc1cnccc1-c1ccc([18F])nc1)c1ccnc(NC(=O)C2CC2)c1  SUV (mice, transgenic, GSK-3β, early-stage, liver; intravenous, dose not given, 120 min): 5.05
C[C@@H](Nc1c(-c2c(F)cc(C#N)cc2F)c(Cl)nc2ncnn12)C(C)(C)C  insoluble Aβ42 level (ELISA; 5XFAD transgenic mice, hippocampus; intraperitoneal, 1 mg/kg twice weekly, 4 weeks): decreased
CN1CCCNC(=O)c2cccc(c2)C(=O)NCCCN(C)CCCNc2cccc3c2C(=O)c2cccc(c2C3=O)NCCC1  AST (mice, serum; dose not given): 53 IU/L
Cc1cc(-c2ccc(C(=O)[C@@H]3CCCC[C@H]3C(=O)Nc3cnn4c3C(=O)NCC4)cc2)[nH]n1  radioactivity recovery per interval (human, urine; oral, 200 mg, 168-192 h; reference: dose): < 0.01% and 0.02%
CCCCN1C(=O)c2cccc3c(NCCN4CCOCC4)ccc(c23)C1=O  molar extinction coefficient (EtOAc): 6390 M⁻¹ cm⁻¹
CCc1occc(=O)c1[O-].[Cl-].[W+4].c1cc[cH-]c1.c1cc[cH-]c1  oxidation potential (cyclic voltammetry; reference: Ag/AgCl): 575 mV
